Published values from different studies.
Protocols differ between the studies behind these lines. “And” joins repeats or separate records; there may be more than shown. ± gives the spread as reported.

`CC(=O)c1nn(CC(=O)N2C[C@H](F)C[C@H]2C(=O)Nc2cccc(Br)n2)c2ccc(-c3cnc(C)nc3)cc12` has an AUC(0-t) of 1570 ng·h/mL (Dutch Belted rabbit, plasma; oral, 15 mg/kg single dose).
For `C=C(C)[C@@H]1CC[C@]2(NCCN3CCS(=O)(=O)CC3)CC[C@]3(C)[C@H](CC[C@@H]4[C@@]5(C)CC=C(C6=CC[C@@](CF)(C(=O)O)CC6)C(C)(C)[C@@H]5CC[C@]43C)[C@@H]12`, the AUC(0-t) was 27800 ng·h/mL (healthy adults, plasma; oral, 200 mg once daily, day 7, steady state, moderate-fat meal, together with: dolutegravir 50 mg).
For `Cc1nc(Nc2ncc(C(=O)Nc3c(C)cccc3Cl)s2)cc(N2CCN(CCO)CC2)n1`, the AUC(0-t) was 1450 ng·h/mL (patients, plasma; oral, 200 mg, day 0, given alone, geometric mean).
`COc1cc2c(cc1OC)CN(CCc1ccc(NC(=O)c3cc(OC)c(OC)cc3NC(=O)c3cnc4ccccc4c3)cc1)CC2` gave an AUC(0-t) of 16600 ng·h/mL and 18800 ng·h/mL and 21800 ng·h/mL and 14800 ng·h/mL (human, plasma; intravenous infusion, 8 mg/kg, up to 24 h post-infusion).
`O=C(O)C[C@H](O)C[C@H](O)/C=C/c1c(C2CC2)nc2ccccc2c1-c1ccc(F)cc1` gave an AUC(0-t) of 289 ng·h/mL (healthy Chinese male volunteers, plasma; oral, 2 mg once daily, multiple dose).
`CC(C)=CCC[C@](C)(O[C@@H]1O[C@H](CO)[C@@H](O)[C@H](O)[C@H]1O)[C@H]1CC[C@]2(C)[C@@H]1[C@H](O)C[C@@H]1[C@@]3(C)CC[C@H](O[C@@H]4O[C@H](CO)[C@@H](O)[C@H](O)[C@H]4O[C@@H]4O[C@H](CO)[C@@H](O)[C@H](O)[C@H]4O)C(C)(C)[C@@H]3CC[C@]12C` gave an AUC(0-t) of 7.85 ± 11.2 ng·h/mL (LC-MS/MS; healthy volunteers, serum; oral, 3 g red ginseng).
`NC(=O)c1cnc2[nH]ccc2c1N[C@@H]1[C@@H]2CC3C[C@H]1C[C@@](O)(C3)C2` gave an AUC(0-t) of 776 ng·h/mL (healthy Japanese men, plasma; oral, 60 mg, single dose fasted).
`CCCN1CC(c2ccc(S(C)(=O)=O)cc2)=C(c2ccc(C)cc2)C1=O` gave an AUC(0-t) of 183 ng·h/mL (healthy Chinese, elderly, plasma; oral, 100 mg).
`CC1Cc2ccccc2N1NC(=O)c1ccc(Cl)c(S(N)(=O)=O)c1` (centres unmarked) gave an AUC(0-t) of 882 ± 126 ng·h/mL (healthy Chinese volunteers, whole blood; oral, 1.25 mg, up to 48 h, fasting, together with: perindopril tert-butylamine 4 mg).
`CNC(=O)c1ccc(-c2cnc3ncc(Cc4ccc5ncccc5c4)n3n2)cc1F` gave an AUC(0-t) of 7710 ng·h/mL (severe hepatic impairment; oral, 200 mg, geometric mean).
`Cc1[nH]c(/C=C2\C(=O)Nc3ccccc32)c(C)c1CCC(=O)O` has an AUC(0-t) of 76600 ± 1000 ng·h/mL (Japanese patients, plasma; oral, 1200 mg/m^2, day 1).
`Cc1ccc(NC(=O)c2ccc(CN3CCN(C)CC3)cc2)cc1Nc1nccc(-c2cncc(-c3oncc3C)c2)n1` gave an AUC(0-t) of 87200 ng·h/mL (healthy volunteers, plasma; oral, 200 mg once daily, day 1, 7-day dosing, mean).
`CC(C)=CCC[C@](C)(O[C@@H]1O[C@H](CO)[C@@H](O)[C@H](O)[C@H]1O)[C@H]1CC[C@]2(C)[C@@H]1[C@H](O)C[C@@H]1[C@@]3(C)CC[C@H](O[C@@H]4O[C@H](CO)[C@@H](O)[C@H](O)[C@H]4O)C(C)(C)[C@@H]3CC[C@]12C` gave an AUC(0-t) of 2.98 ± 2.01 ng·h/mL (LC-MS/MS; healthy male volunteers, serum; oral, 3 g red ginseng).
For `CCC[C@H](N[C@@H](C)C(=O)N1[C@H](C(=O)O)C[C@@H]2CCCC[C@@H]21)C(=O)O`, the AUC(0-t) was 60.8 ± 15.7 ng·h/mL (healthy Chinese volunteers, whole blood; oral, 4 mg perindopril tert-butylamine, up to 48 h, fasting, together with: indapamide 1.25 mg).
The AUC(0-t) of `O=C(NC[C@H](O)CO)c1ccncc1Nc1ccc(I)cc1F` is reported as 1260 ng·h/mL (patients, plasma; oral, 60 mg single dose, day 8, median, alone).
`O=C(c1cc(Cl)c(O)c(Cl)c1)N1CS(=O)(=O)c2ccccc21` gave an AUC(0-t) of 4700 ± 608 ng·h/mL (healthy Chinese adults, fasted, plasma; oral, 4 mg single dose, day 1).
For `CCC[C@H](N[C@@H](C)C(=O)N1[C@H](C(=O)O)C[C@@H]2CCCC[C@@H]21)C(=O)OCC`, the AUC(0-t) was 34 ± 8.6 ng·h/mL (healthy Chinese volunteers, whole blood; oral, 4 mg, up to 6 h, fasting, together with: indapamide 1.25 mg).
`CC#CC(=O)N1CCC[C@H]1c1nc(-c2ccc(C(=O)Nc3ccccn3)cc2)c2c(N)nccn12` has an AUC(0-t) of 1210 ng·h/mL (Japanese patients, plasma; oral, 100 mg twice daily, day 8, fasting, multiple dose, geometric mean).
`C#C[C@]1(O)CC[C@H]2[C@@H]3CCc4cc(O)ccc4[C@H]3CC[C@@]21C` has an AUC(0-t) of 3.87 ± 0.976 ng·h/mL (HIV-positive women, ritonavir arm, serum; oral, 30 µg with levonorgestrel, 72 h, steady state, together with: ritonavir).
The AUC(0-t) of `C[C@H]1Oc2cc(cnc2N)-c2c(nn(C)c2C#N)CN(C)C(=O)c2ccc(F)cc21` is reported as 8600 ng·h/mL (healthy adults; oral solution, 100 mg single dose, adjusted geometric mean).
For `Cc1nc2cccc(N)c2c(=O)n1C1CCC(=O)NC1=O` (centres unmarked), the AUC(0-t) was 1070 ng·h/mL (healthy adults, plasma; oral, 3 mg, geometric mean, together with: fluvoxamine 50 mg twice daily).
`Cc1cc(-c2ccn3c(-c4ccc(CC(=O)Nc5cccc(C(F)(F)F)c5)c(F)c4)cnc3c2)ccn1` has an AUC(0-t) of 12800 ng·h/mL and 12700 ng·h/mL and 11300 ng·h/mL (human; oral, 50 mg once daily, multiple doses, visit 1).
`Cc1nc(-c2ccc(OCC(C)C)c(C#N)c2)sc1C(=O)O` gave an AUC(0-t) of 15400 ± 3220 ng·h/mL (healthy Chinese adult volunteers, plasma; oral, 80 mg single dose, fasting).
